# Measured values from different studies.
# ± gives the spread as reported.
# RIPK3: Receptor-interacting serine/threonine-protein kinase 3 (RIPK3, Homo sapiens, UniProt Q9Y572)
# HDAC11: Histone deacetylase 11 (HDAC11, Homo sapiens, UniProt Q96DB2)
# Genome polyprotein NS2B-NS3 protease: Genome polyprotein, NS2B-NS3 protease (dengue virus type 2, UniProt P29990)
# TRPV4: Transient receptor potential cation channel subfamily V member 4 (TRPV4, Homo sapiens, UniProt Q9HBA0)
# SIRT5: NAD-dependent protein deacylase sirtuin-5, mitochondrial (SIRT5, Homo sapiens, UniProt Q9NXA8)
SMILES,target or system,test,test system,setting,how to read,measurement,value
CS(=O)(=O)Nc1cccc(-c2csc3cnc(Nc4ccc(N5CCN(CCCCCOc6cccc7c6C(=O)N(C6CCC(=O)NC6=O)C7=O)CC5)cc4)nc23)c1 (stereo not shown),RIPK3,"probe labelling, inhibitor, KiNativ chemoproteomics",MOLT-4,1 µM,,inhibition,-22%
O=C(NO)c1cccc(OS(=O)(=O)Oc2cccc([N+](=O)[O-])c2)c1,HDAC11,,,10 µM,,inhibition,37%
O=C1c2sc(-c3ccc(N4CCC(CO)CC4)nc3F)nc2CCN1c1cccnc1,"Adenosine receptor A2a (ADORA2A, Homo sapiens, UniProt P29274)","ligand displacement, radioligand",,1 µM,,inhibition,4%
CCn1cc(C(=O)O)c(=O)c2c(N)c(F)c(NC3CCCCC3)cc21,"Cyclin-dependent kinase 4, with cyclin D2 (CDK4, Homo sapiens, UniProt P11802)",kinase activity,,"0.1 µM, together with: ATP at Km",,inhibition,20.4%
C=CCN(CC=C)C(=O)n1ccnn1,"Acylamino-acid-releasing enzyme (Apeh, Mus musculus, UniProt Q8R146)","serine hydrolase activity, inhibitor, competitive gel-based ABPP",mouse T-cell proteome,"1 µM, 30 min, 37 °C",,inhibition,< 50%
N#Cc1ccc(CNC(=O)c2cc(-c3ccccc3)n(-c3ccccc3)n2)cc1,Genome polyprotein NS2B-NS3 protease,reporter gene,HeLa,12.5 µM,,inhibition,30%
COC1CN([C@H]2CC[C@H]([C@@]3(C)Oc4c(Cl)cc(C(=O)NCc5c(SC)cc(C)[nH]c5=O)c(C)c4O3)CC2)C1,,"RNA-seq, item: FBXO2","human, whole blood","dose not given, 24 h",baseline: pretreatment baseline,log2 fold change,1.6
NC(=O)[C@@H](O)C[C@H]1CCc2sc3ncnc(O[C@H]4CC[C@H](N5CCOCC5)CC4)c3c21,RIPK3,"enzyme activity, inhibitor",,10 µM,,inhibition,-35%
CC(=O)c1cnc(N)nc1N1CC[C@H]1c1nn2ccc(Cl)c2c(=O)n1-c1ccccc1,"Substance-K receptor (TACR2, Homo sapiens, UniProt P21452)","ligand displacement, radioligand",,10 µM,,inhibition,12%
CN1CCN(Cc2ccc(-c3ccc(CO[C@H]4CCC[C@@H]4NC(=O)c4cc(-c5cnn(C)c5)cnc4N)cc3)cc2)CC1,RIPK3,"enzyme activity, inhibitor",,0.1 µM,,inhibition,-6%
C/C1=C\CC/C(C)=C/CC(C)(C)/C=C/C1,TRPV4,"ion current, inhibitor, outside-out patch clamp",,"100 µM, together with: GSK1016790A 1 µM",,inhibition,96 ± 3%
CN(C)C/C=C/C(=O)Nc1ccc2nc(NCCCCCN(C)C)nc(NCCCCCCN(C)C)c2c1,"Histone-lysine N-methyltransferase 2A (KMT2A, Homo sapiens, UniProt Q03164)","enzyme activity, inhibitor, radiometric",,10 µM,,inhibition,7%
O=C(NC1CCC1)[C@H](Cc1c[nH]c2ccccc12)NC(=O)[C@H](CCCCNC(=S)NCc1cc(F)c(O)c(F)c1)NS(=O)(=O)c1cccc(F)c1,SIRT5,"enzyme activity, inhibitor",,100 µM,,inhibition,< 0%
O=C(/C=C/c1cccc(OS(=O)(=O)Oc2ccccc2-c2ccccc2)c1)NO,HDAC11,,,10 µM,,inhibition,15%
CCCCCCCCCCCCNC(=S)NCCCC[C@H](NS(C)(=O)=O)C(=O)N[C@H](C)C(=O)N[C@@H](CCCNC(=N)N)C(N)=O,SIRT5,"enzyme activity, inhibitor",,100 µM,,inhibition,< 5%
"CC(=O)C12NC(C)(C)CC1(C)C(=O)C1=C2c2c(c3c4n2C(C)(C)CC2=C4C4(CC(C)(C)NC(C)(C4)C2=O)CC3(C)C)C(=O)C(C)(C)N1 (single isomer, unassigned; (+))",TRPV4,"ion current, inhibitor, patch clamp",HEK-293T,50 µM,,inhibition,26.8%
O=C1c2sc(-c3ccc(N4CCC(F)C4)nc3F)nc2CCN1c1cccnc1 (stereo not shown),"Melanocyte-stimulating hormone receptor (Mc1r, Mus musculus, UniProt Q01727)","ligand displacement, radioligand",,1 µM,,inhibition,1%
O=C1CO[C@H](CNC(=O)C2(c3ccc(Cl)cc3)CC2)CN1C1Cc2ccccc2C1,"C-C chemokine receptor type 2 (CCR2, Homo sapiens, UniProt P41597)","β-arrestin recruitment, antagonist",,1 µM,,inhibition,-13%
NC(=O)c1cccc(NC(=O)c2cc(-c3ccc4c(c3)OCCO4)n(-c3ccccc3)n2)c1,Genome polyprotein NS2B-NS3 protease,"enzyme activity, fluorogenic AMC substrate",,50 µM,,inhibition,62%
CC(C)Cn1c(SCC(=O)N2CCc3ccccc3C2)nc2cc(Cl)ccc2c1=O,"D(1A) dopamine receptor (DRD1, Homo sapiens, UniProt P21728)","ligand displacement, radioligand",,10 µM,,inhibition,1%
CCCCCCCCCCCCCCCC(=O)N[C@@H](CCCCN)C(=O)N[C@@H](CCCCN)C(=O)N[C@@H](CO)C(=O)N[C@@H](CCCNC(=N)N)C(=O)N[C@@H](C)C(=O)N[C@@H](CC(C)C)C(=O)N[C@@H](Cc1ccccc1)C(N)=O,"Proteinase-activated receptor 4 (F2RL3, Homo sapiens, UniProt Q96RI0)","platelet aggregation, ex vivo LTA",human,"0.3 mg/kg, 24 h or discharge, together with: AYPGKF 160 µM",baseline: baseline,inhibition,8%
CC(=O)N[C@H](C(=O)N[C@@H](CO)C(=O)N[C@@H](Cc1ccccc1)C(=O)N[C@H]1CCCCNC(=N)NCCCC[C@@H](C(=O)N2CCC[C@H]2C(N)=O)NC(=O)[C@H](CC(C)C)NC(=O)[C@H](CC(C)C)NC(=O)[C@H](C)NC(=O)[C@H](Cc2c[nH]c3ccccc23)NC(=O)[C@H](Cc2ccc(O)cc2)NC(=O)[C@H](CCC(=O)O)NC1=O)[C@@H](C)O,"E3 ubiquitin-protein ligase Mdm2 (MDM2, Homo sapiens, UniProt Q00987)","protein-protein interaction, inhibitor, TR-FRET",,0.1 µM,,inhibition,80%
O=C(c1cc(-c2ccccc2)n(-c2ccccc2)n1)N1CCC(N2CCCC2)CC1,Genome polyprotein NS2B-NS3 protease,reporter gene,HeLa,12.5 µM,,inhibition,26%
C[Si](C)(C)C[C@H](CN)CC(=O)O,"Cannabinoid receptor 2 (CNR2, Homo sapiens, UniProt P34972)","ligand displacement, radioligand",,250 µM,,inhibition,2%
N#Cc1cc(NC(=O)c2cc(-c3ccccc3)n(-c3ccccc3)n2)ccc1N1CCOCC1,Genome polyprotein NS2B-NS3 protease,"enzyme activity, fluorogenic AMC substrate",,50 µM,,inhibition,74%
C/C=C/C(=O)Nc1ccc2nc(NCCCCCN(C)C)nc(NCCCCCCN(C)C)c2c1,"RNA 5'-monophosphate methyltransferase (BCDIN3D, Homo sapiens, UniProt Q7Z5W3)","enzyme activity, inhibitor, radiometric",,10 µM,,inhibition,53%
O=C(NCc1ccccn1)c1cc(-c2ccccc2)n(-c2ccccc2)n1,Genome polyprotein NS2B-NS3 protease,"enzyme activity, fluorogenic AMC substrate",,50 µM,,inhibition,17%
O=C(CCCc1ccc2c(c1)OCCO2)NCCNC(=O)Cn1c(=O)[nH]c(=O)c2ccccc21,"Poly [ADP-ribose] polymerase tankyrase-1 (TNKS, Homo sapiens, UniProt O95271)","enzyme activity, inhibitor",,0.104 µM,,inhibition,47%
O=C(Nc1cccc(N2CCOCC2)c1)c1cc(-c2ccccc2)n(-c2ccccc2)n1,Genome polyprotein NS2B-NS3 protease,"enzyme activity, fluorogenic AMC substrate",,50 µM,,inhibition,59%
Cc1nc2c(F)cc(-c3nc(Nc4ccc(CNC(=O)CCCCCCC(=O)NO)cc4)ncc3F)cc2n1C(C)C,"Serine/threonine-protein kinase ATR (ATR, Homo sapiens, UniProt Q13535)",kinase activity,,1 µM,,inhibition,0%
NC(=O)c1cc(-c2ccc3c(c2)OCCO3)n(-c2ccccc2)n1,Genome polyprotein NS2B-NS3 protease,reporter gene,HeLa,12.5 µM,,inhibition,37%
O=C1CCC(N2Cc3cc(C(=O)O)c(F)cc3C2=O)C(=O)N1 (stereo not shown),"Protein cereblon (CRBN, Homo sapiens, UniProt Q96SW2)","tracer binding, NanoBRET target engagement",,"concentration not given, intact cells, no permeabilisation",,inhibition,≤ 50%
CCOC(=O)c1cnc(NCc2cccc(NC(=O)c3cc(-c4ccccc4)n(-c4ccccc4)n3)c2)nc1,Genome polyprotein NS2B-NS3 protease,reporter gene,HeLa,12.5 µM,,inhibition,51%
Cc1ncsc1-c1ccc(C(C)NC(=O)C2CC(O)CN2C(=O)C(NC(=O)CCCCCCCCCCN2CCCC(Nc3ncc(Cl)c(Nc4ccccc4S(=O)(=O)C(C)C)n3)C2)C(C)(C)C)cc1 (stereo not shown),22Rv1,"RNA-seq, item: NR4A1 mRNA",,concentration not given,baseline: DMSO,log2 fold change,-1.12

# Repeated from above:
SMILES,target or system,test,test system,setting,how to read,measurement,value
CC(C)Cn1c(SCC(=O)N2CCc3ccccc3C2)nc2cc(Cl)ccc2c1=O,"D(1A) dopamine receptor (DRD1, Homo sapiens, UniProt P21728)","ligand displacement, radioligand",,10 µM,,inhibition,1%
O=C(NO)c1cccc(OS(=O)(=O)Oc2cccc([N+](=O)[O-])c2)c1,HDAC11,,,10 µM,,inhibition,37%
O=C(CCCc1ccc2c(c1)OCCO2)NCCNC(=O)Cn1c(=O)[nH]c(=O)c2ccccc21,"Poly [ADP-ribose] polymerase tankyrase-1 (TNKS, Homo sapiens, UniProt O95271)","enzyme activity, inhibitor",,0.104 µM,,inhibition,47%
